Published values from different studies.
Each numbered part is a random draw from the data of one study; scales do not carry over between parts. Several values in a cell are separate wells, animals, samples, runs or records.
Chain of UniProt P37173 (whole entry, looked up): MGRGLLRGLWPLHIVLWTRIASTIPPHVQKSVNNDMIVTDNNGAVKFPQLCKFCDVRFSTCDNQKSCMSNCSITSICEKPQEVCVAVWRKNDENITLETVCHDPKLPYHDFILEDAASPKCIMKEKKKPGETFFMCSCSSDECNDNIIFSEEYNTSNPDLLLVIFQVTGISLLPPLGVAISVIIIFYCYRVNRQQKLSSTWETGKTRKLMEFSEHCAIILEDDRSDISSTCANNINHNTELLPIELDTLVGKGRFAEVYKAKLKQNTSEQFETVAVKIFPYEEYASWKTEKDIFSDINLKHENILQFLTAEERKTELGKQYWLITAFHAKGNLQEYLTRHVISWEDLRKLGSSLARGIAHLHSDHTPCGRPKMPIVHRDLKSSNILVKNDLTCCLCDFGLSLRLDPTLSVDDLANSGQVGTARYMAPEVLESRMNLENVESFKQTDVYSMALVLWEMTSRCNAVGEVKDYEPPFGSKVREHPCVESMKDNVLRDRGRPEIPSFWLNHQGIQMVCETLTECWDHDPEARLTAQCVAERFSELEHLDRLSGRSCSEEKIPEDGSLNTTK

Study 1 — host: mouse; matrix: microsomes or S9; concentration: 2 µM; time: 0.5 h
Cn1ncc2cc(-c3ccc(C(C)(C)C)cc3)c(-c3ccc(C(C)(C)C)cc3)cc21 gave a remaining compound of 33.9%.
With Cc1cnn(CCCn2ncc(N(C)C)cc2=O)c1 the remaining compound was 9.65%.
With O=C(CCS(=O)(=O)c1ccccc1)N(Cc1ccccc1)c1nc2ccccc2s1 the remaining compound was 4.15%.
The remaining compound of CCCN(CCC)C(=O)c1cc2cc(Cl)ncc2n1CCOC is reported as 23.1%.
COc1nc(Nc2ccc3cn[nH]c3c2)nc(-n2ccnc2)n1 has a remaining compound of 9.88%.
The remaining compound of Cc1cc(=O)c(OCC(=O)Nc2ccc3[nH]c(CC(C)C)nc3c2)c[nH]1 is reported as 53.6%.
With CC(=O)Nc1ccc(Nc2cc(C)nc(-n3nc(C)cc3C)n2)cc1 the remaining compound was 8.15%.
O=C(CCN1C(=O)c2ccccc2N2C(=O)c3ccccc3C12)NCC1CCOCC1 (stereo not drawn) has a remaining compound of 20.1%.
With N=c1c2cnn(-c3ccccc3)c2[nH]c(=O)n1-c1ccccc1 the remaining compound was over 100%.
For CCCn1nc(C)c(-c2cncn2CCn2nc(C)c(C)c2C)c1C, the remaining compound was 3.99%.
For CC(=O)Nc1ccc(Cl)c(C(=O)N(C)C(CO)C(C)(C)C)c1 (stereo not drawn), the remaining compound was 39.6%.
The remaining compound of CCc1nc(-n2nc(C)cc2C)c2cc(C)sc2n1 is reported as 30%.

Study 2 — effect on: enzyme activity; mode: inhibitor; concentration: 0.5 µM; baseline: control
Target: cAMP-dependent protein kinase catalytic subunit PRKX (PRKX, Homo sapiens, UniProt P51817)
Target sequence (P51817 1-358): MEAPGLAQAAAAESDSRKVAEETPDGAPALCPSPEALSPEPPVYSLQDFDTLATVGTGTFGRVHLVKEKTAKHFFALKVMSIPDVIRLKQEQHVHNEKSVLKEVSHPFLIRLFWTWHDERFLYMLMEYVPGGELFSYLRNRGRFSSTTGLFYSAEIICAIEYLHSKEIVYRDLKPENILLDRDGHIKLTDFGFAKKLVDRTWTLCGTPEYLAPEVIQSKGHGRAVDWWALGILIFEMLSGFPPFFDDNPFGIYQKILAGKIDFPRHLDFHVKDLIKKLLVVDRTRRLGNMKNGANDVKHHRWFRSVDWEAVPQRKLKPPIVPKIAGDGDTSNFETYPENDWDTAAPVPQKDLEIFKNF
The remaining activity of CCOc1nc(NC(=O)Cc2cc(OC)ccc2OC)cc(N)c1C#N is reported as 100%.
CN([C@@H](Cc1ccc(OS(=O)(=O)c2cccc3cnccc23)cc1)C(=O)N1CCN(c2ccccc2)CC1)S(=O)(=O)c1cccc2cnccc12 has a remaining activity of 109%.
c1ccc(-c2[nH]ncc2-c2ccnc3ccccc23)nc1 has a remaining activity of 102%.
For Nc1cccc(-c2cc3c(Oc4cccc(O)c4)ncnc3[nH]2)c1, the remaining activity was 114%.
Cc1cn(-c2cc(NC(=O)c3ccc(C)c(Nc4nccc(-c5cccnc5)n4)c3)cc(C(F)(F)F)c2)cn1 gave a remaining activity of 109%.
Cn1nc2c3c(cccc31)C(=O)c1ccccc1-2 has a remaining activity of 101%.
CCN(CC)CCNC(=O)c1c(C)[nH]c(/C=C2\C(=O)Nc3ccc(F)cc32)c1C has a remaining activity of 105%.
For CCN(CC)CCNC(=O)c1c(C)[nH]c(/C=C2\C(=O)Nc3ccc(Cl)cc32)c1C, the remaining activity was 83.9%.
O=C1c2ccccc2-c2n[nH]c3cccc1c23 gave a remaining activity of 89.5%.
For Cc1cc2ncc(-c3ccccc3)nc2cc1C, the remaining activity was 97.9%.
COc1cc2ncnc(Nc3ccc(O)c(Br)c3)c2cc1OC has a remaining activity of 89.2%.
For O=C(NC(NC(=S)Nc1ccc(F)c([N+](=O)[O-])c1)C(Cl)(Cl)Cl)C(c1ccccc1)c1ccccc1 (stereo not drawn), the remaining activity was 106%.
COc1cc2c(cc1OC)-c1[nH]nc(Nc3cccc(F)c3)c1C2 gave a remaining activity of 103%.
The remaining activity of N#Cc1c(NC(=O)c2cccc3ccccc23)sc2c1CCCC2 is reported as 103%.
For Ic1cccc(CSc2nnc(-c3ccncc3)o2)c1, the remaining activity was 78.2%.
The remaining activity of O=C(Nc1cccc(Nc2nccc(Nc3cccc(C(F)(F)F)c3)n2)c1)C1CC1 is reported as 94.6%.
For CN(C)C[C@H]1CCn2c(c(C3=C(c4cn(C)c5ccccc45)C(=O)NC3=O)c3ccccc32)C1, the remaining activity was 97.8%.
The remaining activity of O=C1C(Cl)=C(N2C(=O)CCC2=O)C(=O)c2ccccc21 is reported as 103%.
Cc1nc2cc3nc(-c4cccs4)cnc3cc2n1C has a remaining activity of 106%.
For C[C@@H]1CCN(C(=O)CC#N)C[C@@H]1N(C)c1ncnc2[nH]ccc12, the remaining activity was 110%.
The remaining activity of COc1cc2ncnc(Nc3cccc(Cl)c3)c2cc1OC is reported as 92.5%.
N#C/C(=C\c1ccc(O)c(O)c1)C(=O)NCc1ccccc1 has a remaining activity of 99.6%.
For c1ccc(-c2cnc(Nc3ccc(OCCN4CCCC4)cc3)s2)cc1, the remaining activity was 101%.
CCN(CC)C(=O)c1ccc(Nc2nc(OCC3CCCCC3)c3[nH]cnc3n2)cc1 has a remaining activity of 93.4%.

Study 3 — cell line: HaCaT; concentration: 100 µM; time: 36 h
CN1CCC(=C2c3ccccc3CC(=O)c3sccc32)CC1 has a viability of 63.4%.
Cc1ccsc1C(=CCCN1CCC[C@@H](C(=O)O)C1)c1sccc1C has a viability of 70.7%.
CN(C)CCCN1c2ccccc2Sc2ccc(Cl)cc21 gave a viability of 5.42%.
C[C@H](Cc1cc2c(c(C(N)=O)c1)N(CCCO)CC2)NCCOc1ccccc1OCC(F)(F)F has a viability of 86.6%.
O=C(O)C[C@H](O)C[C@H](O)/C=C/c1c(C2CC2)nc2ccccc2c1-c1ccc(F)cc1 gave a viability of 16.9%.
Cn1c(=O)c2[nH]cnc2n(C)c1=O gave a viability of 92.2% and 81% and 101%.
With NCCS the viability was 81.2%.
For CC1=NN(c2ccc(C)c(C)c2)C(=O)/C1=N\Nc1cccc(-c2cccc(C(=O)O)c2)c1O, the viability was 38.3%.
CC1Cc2ccccc2N1NC(=O)c1ccc(Cl)c(S(N)(=O)=O)c1 (stereo not drawn) gave a viability of 82.4%.
CO/N=C1\CN(c2nc3c(cc2F)c(=O)c(C(=O)O)cn3C2CC2)CC1CN (stereo not drawn) has a viability of 55.4%.
CN(C)CCC(c1ccccc1)c1ccccn1 (stereo not drawn) has a viability of 83.5%.
For CN(C/C=C/C#CC(C)(C)C)Cc1cccc2ccccc12, the viability was 57.7%.
CS(=O)(=O)n1cc2c(n1)CN([C@H]1CO[C@H](c3cc(F)ccc3F)[C@@H](N)C1)C2 gave a viability of 87.4%.
With C[C@@H]1C/C=C/C=C/C=C/C=C/[C@H](O[C@@H]2O[C@H](C)[C@@H](O)[C@H](N)[C@@H]2O)C[C@@H]2O[C@](O)(C[C@@H](O)C[C@H]3O[C@@H]3/C=C/C(=O)O1)C[C@H](O)[C@H]2C(=O)O the viability was 50.3%.
With CC(C)[C@@H]1CC[C@@H](C)C[C@H]1O the viability was 93.6%.
The viability of C[C@]12CCC(=O)C=C1CC[C@@H]1[C@@H]2C(=O)C[C@@]2(C)[C@H]1CC[C@]2(O)C(=O)CO is reported as 99.4%.
CC(C)(Oc1ccc(Cl)cc1)C(=O)O gave a viability of 96%.

Mixed results
For Cc1cc(NC(=O)c2cccc(S(F)(F)(F)(F)F)c2)cc(-n2ccn3nc(-c4cccnc4)cc23)c1, the Kd was 54 nM (TGF-beta receptor type-2 (TGFBR2, Homo sapiens, UniProt P37173); binding, competition with immobilised ligand).

Repeated from above (study 3):
With NCCS the viability was 81.2%.
For CC1=NN(c2ccc(C)c(C)c2)C(=O)/C1=N\Nc1cccc(-c2cccc(C(=O)O)c2)c1O, the viability was 38.3%.
CC1Cc2ccccc2N1NC(=O)c1ccc(Cl)c(S(N)(=O)=O)c1 (stereo not drawn) gave a viability of 82.4%.
CO/N=C1\CN(c2nc3c(cc2F)c(=O)c(C(=O)O)cn3C2CC2)CC1CN (stereo not drawn) has a viability of 55.4%.
